Assay results gathered from unrelated publications.
Numbered parts are unrelated; each lists some results of a single study.

Sample 1 — technique: protein binding microarray; molecule type: double-stranded DNA, one strand shown; matrix: in vitro; concentration: not given; relative to: not given; direction: higher = stronger binding
Target: Histone acetyltransferase KAT6A, winged helix 2, GST fusion (KAT6A, Homo sapiens, UniProt Q92794, residues 85-181)
Setting: 8-mer, flanks averaged, mean of 2 arrays, mostly near background
Target sequence (chain): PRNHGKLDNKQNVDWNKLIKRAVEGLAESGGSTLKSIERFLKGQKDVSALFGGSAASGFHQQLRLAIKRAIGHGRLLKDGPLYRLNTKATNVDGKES
| Strand | E-score |
| --- | --- |
| CTTTCGCA | 0.0358 |
| ACCCGTTG | 0.000415 |
| GCGTTGCA | 0.106 |
| CCTAGTAC | -0.0314 |
| TGACCCAA | 0.0237 |
| ATGGCCGA | 0.0336 |
| CGGAGCAA | 0.0541 |
| CGACTAGC | 0.0918 |
| AGTGGTGG | -0.0365 |
| ACTGTAGC | -0.226 |
| CCCCCAAA | -0.035 |
| CGAAATCC | 0.142 |
| ATCTGTCC | 0.0548 |
| TCATGGAA | 0.0184 |
| ATCAGGCA | -0.0623 |
| TTAAATAA | 0.112 |
| GAAGAACC | 0.014 |
| ACTAGGTG | -0.0919 |
| CCACCGAG | -0.0478 |
| GAGCATAC | 0.057 |
| AACAGTGC | -0.0783 |
| CGGAGAAA | 0.134 |
| AATAGGAG | -0.136 |
| ATCCAATC | -0.0713 |

Sample 2 — technique: protein-binding microarray; molecule type: double-stranded DNA, one strand shown; matrix: in vitro; concentration: not given; direction: higher = stronger binding
Target: Transcription factor Sp1 (SP1, Homo sapiens, UniProt P08047, residues 1-785, full length assumed)
UniProt P08047, sequence (whole entry, looked up): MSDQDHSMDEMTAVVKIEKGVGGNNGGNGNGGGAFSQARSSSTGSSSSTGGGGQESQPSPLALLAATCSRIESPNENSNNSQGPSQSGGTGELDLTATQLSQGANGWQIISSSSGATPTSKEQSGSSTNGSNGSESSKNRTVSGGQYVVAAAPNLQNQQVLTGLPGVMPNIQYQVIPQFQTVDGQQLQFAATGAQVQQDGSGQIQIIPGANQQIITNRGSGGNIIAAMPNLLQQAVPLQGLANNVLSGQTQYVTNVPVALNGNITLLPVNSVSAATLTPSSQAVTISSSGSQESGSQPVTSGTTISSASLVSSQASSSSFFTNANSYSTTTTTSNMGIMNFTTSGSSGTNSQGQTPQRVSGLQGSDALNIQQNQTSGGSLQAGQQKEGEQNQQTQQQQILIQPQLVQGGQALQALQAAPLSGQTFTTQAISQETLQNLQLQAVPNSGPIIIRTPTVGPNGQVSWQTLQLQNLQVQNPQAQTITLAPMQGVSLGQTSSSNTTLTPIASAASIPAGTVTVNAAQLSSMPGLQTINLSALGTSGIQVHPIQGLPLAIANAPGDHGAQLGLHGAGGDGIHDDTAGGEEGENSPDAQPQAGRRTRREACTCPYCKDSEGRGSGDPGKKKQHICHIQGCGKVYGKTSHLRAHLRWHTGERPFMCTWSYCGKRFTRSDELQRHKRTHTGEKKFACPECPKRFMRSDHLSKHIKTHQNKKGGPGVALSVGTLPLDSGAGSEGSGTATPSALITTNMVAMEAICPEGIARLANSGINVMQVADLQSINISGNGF
Setting: k-mer, scored over probes, only values ≥0.25
| Strand | E-score |
| --- | --- |
| GCCACCCC | 0.342 |
| AGTGTATA | 0.269 |
| CCACGTTA | 0.265 |
| GCCACGCC | 0.315 |
| CCCATACC | 0.306 |
| ATACCCCA | 0.274 |
| GTCATCCA | 0.28 |
| GAACTGTA | 0.255 |
| GGGAGGAA | 0.286 |
| CAATACAA | 0.302 |
| AACAATAT | 0.302 |
| CGCCCCGA | 0.284 |
| ACTCCCCT | 0.304 |
| CCTTCTAC | 0.264 |
| AGGGGGCG | 0.485 |
| CCCTCCAC | 0.293 |
| GGGCGGGA | 0.483 |
| CACCCCAG | 0.259 |

Sample 3 — technique: RNA Bind-n-Seq; molecule type: RNA; matrix: in vitro; concentration: 365 nM; relative to: no-protein control; direction: higher = stronger binding
Target: RNA binding protein fox-1 homolog 2, RRM domain, GST-SBP tag (RBFOX2, Homo sapiens, UniProt O43251-10, residues 100-194)
Setting: natural RNA segment, single round, ends assumed
All sequences stand within: GGGAGUUCUACAGUCCGACGAUC … UGGAAUUCUCGGGUGCCAA
Residues (chain): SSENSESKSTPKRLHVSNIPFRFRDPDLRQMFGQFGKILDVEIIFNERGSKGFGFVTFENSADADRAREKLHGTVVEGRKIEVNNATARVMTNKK
| Strand | RBNS enrichment (R) |
| --- | --- |
| GGGCCCCUAGCCUUCCUGCUCCAAGAAACGGCCAUCCCAACAGGGGACUCUGCUACACUGUGCCUUUGUGGUCAGCCUCACUGACGGGGUCUGCAAGUAGCCAGGGCGUG | 0.257 |
| UUGGGAAGCGUAGAGGCAGGGCCAUGUGCUCAGAACGGUGACAAUAAAGGACUGCCUUUUACUUGUUCCUCUAGUGUAGCAUCCCCUCCCUCUGUCCUUUUUAACCUUCG | 0.91 |
| UGGCUUGCUUUCCAAGCCCAAUGAAGGGAAAGUCAGCUUACAGAGCCAAUGAUGGAGCCACAUGAAUGGCCCUGGAGCUGUGUGCCUUGUUCCUGUGGCCAGGAGUUUGG | 0.772 |
| CAGUGACGAAUACGUGUCAUGAUUUCAUCUCACCCAGUCACCGAGUGGAAAGCAAGCCGAGGUGUAAACUGCUGUACAUAGCUUGAAGAAAUACAAAUGAAGUCACGUUU | 0.365 |
| AAUCAAAGAUGAUACAAUAUUUCCCUCACUUCUGUUUUGCUGGCCUUAACUGGUAUCAAACAGUGUCACUGAGAUAUUUUCAAAGAACACUGAAUUGUAUUUAAUCAGCG | 0.268 |
| UCAGGCUUGUGCCACGGGUGAGCACUGAGGCCCCAGGUGUCCUCCCUCCCCCACUGUCUGGGACACAGGACAGGUGUUGCGUCUGACUCUGUCUCCCCCUGUCCAAGAGC | 0.442 |
| GUGAGCCUUAAGCAUGUGAAUCCCCCCACAUGACAAGUGGGGAGACCCAGGGUAGGCUUUCCUUUGGAUCAUCUCCAAAUGGGAGUGCCAUGUGGCAGGAAAGAAGCACC | 10.3 |
| GUAAAGAUCUAAAUUCCUAUGGAUAUUCAGUGGUCUUAGCACCAUGUGUUAAAAGGACUGCUUUUCCCCACUGUGUCCCUGUCAAAAAUCAACUGAACAUAUAUGUAAGA | 0.369 |

Sample 4 — technique: protein-binding microarray; molecule type: double-stranded DNA, one strand shown; matrix: in vitro; concentration: 2540 nM top; setting: 60-bp whole probe; together with: salmon DNA 0.4 mg/ml; relative to: random background probes; direction: higher = stronger binding; all sequences stand within: GCCTAGCAC … GTCTTGATTCGCTTGACGCTGCTG
Target: Interferon regulatory factor 3, full length, phosphomimetic (IRF3, Homo sapiens, UniProt Q14653, residues 1-427, S386D/S396D/S398D/S402D/T404D/S405D)
Construct (chain): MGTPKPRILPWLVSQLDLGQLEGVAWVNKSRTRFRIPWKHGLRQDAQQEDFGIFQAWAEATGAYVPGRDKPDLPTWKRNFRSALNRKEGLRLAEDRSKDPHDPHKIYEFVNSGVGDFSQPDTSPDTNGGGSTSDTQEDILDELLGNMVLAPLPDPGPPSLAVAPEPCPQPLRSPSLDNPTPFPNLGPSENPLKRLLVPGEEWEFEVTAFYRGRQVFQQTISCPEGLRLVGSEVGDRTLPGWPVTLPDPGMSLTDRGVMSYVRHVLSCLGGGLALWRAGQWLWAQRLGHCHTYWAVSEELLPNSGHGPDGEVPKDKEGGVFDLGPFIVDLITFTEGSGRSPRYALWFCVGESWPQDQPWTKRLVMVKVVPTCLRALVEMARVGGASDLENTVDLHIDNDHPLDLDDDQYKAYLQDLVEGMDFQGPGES
| Strand | fitted relative affinity [z-score] |
| --- | --- |
| TTAGGTATCCTACTGCATTAGTGCTAG | 2.52 |
| TTAGAACTGACTATCGATTAGTGCTAG | -0.187 |
| CAGCACATGCATCTCCCACAGTGCTAG | -0.503 |
| TCAGCTTTGTGCCTAGCACTGTGCTAG | -0.327 |
| CTAACTTTCCAATTGTCCTTGTGCTAG | 4.44 |
| TTAGGTCTCTTACTGCTTTAGTGCTAG | -0.127 |
| GACGATTTCTGTATCGAGACGTGCTAG | 2.2 |
| TTAGGTATTGGGTATCGGTTAGTGCTA | 0.606 |
| GACGATCTCAGTATCAAGACGTGCTAG | 0.74 |
| GACGAACTGAGAATCGAGACGTGCTAG | -0.0703 |
| TCAAGCCTCAGTCCTCACACTGTGCTA | -0.661 |
| GACGGTCTCCTTTTCGTGACGTGCTAG | 4.88 |
| TTAGGTTTCGACTATCGGTTGGTGCTA | 2.32 |
| TTAGGCATCGACTATCGGTTAGTGCTA | -0.474 |
| CAGCCTCTGAGCAGCTCGGCGTGCTAG | -0.565 |
| TCATGTGTGTGTATGTGACTGTGCTAG | -0.545 |
| TATTGTTTCCTCTTTCACTGGTGCTAG | 4.66 |
| GACGGACTGGACTATCTGGACGTGCTA | -0.358 |
| TCACAACTTTTTTTAATACTGTGCTAG | 0.43 |

For quick reference, copied from above (sample 2):
| Strand | E-score |
| --- | --- |
| ATACCCCA | 0.274 |
| GTCATCCA | 0.28 |
| GAACTGTA | 0.255 |
| GGGAGGAA | 0.286 |
| CAATACAA | 0.302 |
| AACAATAT | 0.302 |
| CGCCCCGA | 0.284 |
| ACTCCCCT | 0.304 |
| CCTTCTAC | 0.264 |
